Measurements pooled from the literature.
A part holds a random share of what one study measured.

Series 1 — method: RNA Bind-n-Seq; molecule type: RNA; sample: in vitro; concentration: 365 nM; baseline: no-protein control; reading: higher = stronger binding
Target: RNA binding protein fox-1 homolog 2, RRM domain, GST-SBP tag (RBFOX2, Homo sapiens, UniProt O43251-10, residues 100-194)
Notes: natural RNA segment, single round, ends assumed
All sequences stand within: GGGAGUUCUACAGUCCGACGAUC … UGGAAUUCUCGGGUGCCAA
Target sequence (chain): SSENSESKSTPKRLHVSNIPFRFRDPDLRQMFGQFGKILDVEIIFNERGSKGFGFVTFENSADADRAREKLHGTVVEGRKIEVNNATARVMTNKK
| Sequence | RBNS enrichment (R) |
| --- | --- |
| UAAGAUGCUCUCGAGCGUUGAGCAGGCACAGCUCUGUCGAGGUCCCUGUCCCCCACCUGUGGUUCUGGCCUCUGAGGUUGGGGGACUACUUGUUUCCCACCCCAGGUUCC | 0.2 |
| GUAGUCUUGUGCUGUCUCCUGUCCUCGUCCAUUUUAGAGCAAGACGGGAGGAAAAGGCAUUUCCAGCCCAGAACAAGGUCUAAUGCCAAUAAAUGGGAGGAAUGGGUGUA | 0.345 |
| UUACUGUUGUUCACAGAUGAAAACAGAUACGCUAGGGCUAGUUUUGAAAAACACUAAUUCUCUUCAGUCUUCUUUAGUGAAGACUUACACUUGCAAAGUCUGUGCCGCCU | 0.334 |
| UUUUCAGGCAUGGGGUCAAAGCUAGAGGUAUGGGCCGUCUACACCCCCCCGCCCCCCGGCAUCUAGUGUACCUCACCAGAGGGUAUUCGGAGGCCCAGCAUCCUGCAACC | 0.955 |
| AUUCAGUCCCCACUGGCCCUGAGCACGACAGCCCUUCUUACCCUCCCAGGAAUGCCGUGAAAGGAGACAAGGUCUGCCCGACCCAUGUCUAUGCUCUACCCCCAGGGUAG | 0.405 |
| UUCCUAUGGGUGGUCCAGACAAAAGUAUGUCCUCCUGUAGGACGCUAGAGGGCGCUCUAGGACAGCGUCGGAUCCUGUCUCUGGCAACCCCUUGCAAGCCCACGGGGCUU | 0.306 |
| GUGUGCUGAUGUUUCCUGGGUGCCCUGGCUCCUUGCAGCAGGGCUGGGCCUGCGAGACCCAAGGCUCACUGCAGCGCGCUCCUGACCCCUCCCUGCAGGGGCUACGUUAG | 0.285 |
| UGUUCUCCCUAACUCUUUGUUCCAGUGCUGGGAAUUGAAUAGUGAGGUUCAGGAUUGCUAAGCGAGUGCUCUACCACUGAUGUGCAUCCUUAGUCCUUGUUUGCUUUCUA | 0.502 |

Series 2 — method: competition protein-binding microarray; molecule type: double-stranded DNA, one strand shown; sample: in vitro; concentration: 2 µM; together with: Cbf1 competitor, 0.05 µM; reading: higher = stronger binding; all sequences stand within: … GTCTTGATTCGCTTGACGCTGCTG
Target: Phosphate system positive regulatory protein PHO4, full length, GST-tagged (PHO4, Saccharomyces cerevisiae, UniProt P07270, residues 1-312)
Notes: whole 60-bp probe, lowest competitor level
Target sequence (chain): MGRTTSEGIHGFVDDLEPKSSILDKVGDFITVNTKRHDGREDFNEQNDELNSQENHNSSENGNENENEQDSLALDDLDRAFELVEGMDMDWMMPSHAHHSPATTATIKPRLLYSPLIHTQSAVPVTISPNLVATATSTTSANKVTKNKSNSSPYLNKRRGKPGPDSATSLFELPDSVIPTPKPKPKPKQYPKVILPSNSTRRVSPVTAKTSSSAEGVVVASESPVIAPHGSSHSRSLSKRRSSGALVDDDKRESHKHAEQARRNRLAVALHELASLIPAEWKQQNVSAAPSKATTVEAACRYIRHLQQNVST
| Sequence | fluorescence intensity |
| --- | --- |
| TTCCTTTCTCATCCCCTCGTGAAGCGACTCGGCCCC | 5800 a.u. |
| CAATAGGGGAAAGCATTCGTGATGGAGACGTATATA | 4190 a.u. |
| CTTTTCACTCTTCATCACATGATATTACCTTTACAT | 7390 a.u. |
| TGCGCAACAACTTGACCTGTGGGTGTATGTCTAGAA | 4620 a.u. |
| TCCACACACCGTTCACACGTGCTTTATTTCTTTTTC | 18900 a.u. |
| CTTCTGTAAATTTGAGCCGTGGGTGGACGCGCCCCG | 4750 a.u. |
| AGAAACGAAACAAATCATGTGTTACCCGTCCTGGAC | 7140 a.u. |
| GGGCTAAAGAGCCGTCCCGTGATGGCCTGTAATGGC | 5170 a.u. |
| AGGCGAGAAGTTCCACGCGTGTGAATTCCCCGGATG | 7800 a.u. |
| CATACCCAACCTTGAAGAGTGGGTGAAGATATTTGT | 4060 a.u. |

Series 3 — target: UBE2O UBC core domain (UniProt Q9C0C9); method: yeast two-hybrid; sample: yeast; notes: mostly zero background; baseline: not given; reading: higher = stronger interaction
B1: TRIM4 RING domain (UniProt Q9C037); chain EAEDIQEELTCPICLDYFQDPVSIECGHNFCRGCLHRNWAPGGGPFPCPECRHPSAPAALRP
B2: NEURL1 RING domain (UniProt O76050); chain VTPGLGQWSDECTICYEHAVDTVIYTCGHMCLCYACGLRLKKALHACCPICRRPIKDIIKT
B3: TRIM40 RING domain (UniProt Q6P9F5); chain LQKDNQEEGVCPICQESLKEAVSTNCGHLFCRVCLTQHVEKASASGVFCCPLCRKPCSEEVLG
B4: TRIM43 RING domain (UniProt Q96BQ3); chain FSHAFQKELTCVICLNYLVDPVTICCGHSFCRPCLCLSWEEAQSPANCPACREPSPKMDFKT
B5: MKRN1 RING domain (UniProt Q9UHC7); chain FAVQRSKDMVCGICMEVVYEKANPSERRFGILSNCNHTYCLKCIRKWRSAKQFESKIIKSCPECRITSNFVIPSE
B6: TRIM5 RING domain (UniProt Q9C035); chain LREVKLSPEGQKVDHCARHGEKLLLFCQEDGKVICWLCERSQEHRGHHTFLTEEVAREYQVKL
Residues (chain): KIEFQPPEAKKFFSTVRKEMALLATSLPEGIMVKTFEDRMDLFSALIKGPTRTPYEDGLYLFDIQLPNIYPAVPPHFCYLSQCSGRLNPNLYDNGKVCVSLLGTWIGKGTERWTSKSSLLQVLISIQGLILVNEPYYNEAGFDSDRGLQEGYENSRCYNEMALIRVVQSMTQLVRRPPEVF
| Molecule | lacZ reporter activity |
| --- | --- |
| B1 (TRIM4 RING domain) | 0 |
| B2 (NEURL1 RING domain) | 0 |
| B3 (TRIM40 RING domain) | 0 |
| B4 (TRIM43 RING domain) | 0 |
| QVDKAVFHMQSVKCLKCQEQKRAVLPCQHAALCELCAEGSECPICQPGRAHTLQS (UNK RING domain (UniProt Q9C0B0)) | 0 |
| B5 (MKRN1 RING domain) | 0 |
| B6 (TRIM5 RING domain) | 0 |

Series 4 — method: protein binding microarray; molecule type: double-stranded DNA, one strand shown; sample: in vitro; concentration: not given; baseline: not given; reading: higher = stronger binding
Target: Histone acetyltransferase KAT6A, winged helix 2, GST fusion (KAT6A, Homo sapiens, UniProt Q92794, residues 85-181)
Notes: 8-mer, flanks averaged, mean of 2 arrays, mostly near background
Construct (chain): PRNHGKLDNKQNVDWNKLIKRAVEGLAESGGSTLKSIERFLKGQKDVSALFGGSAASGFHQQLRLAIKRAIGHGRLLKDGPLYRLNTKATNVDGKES
| Sequence | E-score |
| --- | --- |
| TCAGTGAA | 0.0188 |
| ACATGGCC | -0.0666 |
| ATCCAGGC | 0.027 |
| ATAACCCG | -0.101 |
| CAAGCTCG | 0.104 |
| GCTAGGCC | 0.1 |
| ATGTAACA | 0.0176 |
| GATTCTAC | -0.0437 |
| AACGGAGA | 0.062 |
| CCCAACCC | -0.164 |
| AATAGTGT | -0.0223 |
| GATACCGC | 0.0323 |
| AACAATGA | 0.0467 |
| ACACAAAC | 0.0314 |
| AACAGGTC | -0.00632 |
| GACACAGC | 0.145 |
| AGATTTCA | -0.0578 |
